Experimental data gathered from unrelated publications.
Numbers after ± are the reported error.
Kir3.1/Kir3.4: Kir3.1/Kir3.4 (Homo sapiens, UniProt P48544+P48549)
Sequence of UniProt P48549 (whole entry, looked up): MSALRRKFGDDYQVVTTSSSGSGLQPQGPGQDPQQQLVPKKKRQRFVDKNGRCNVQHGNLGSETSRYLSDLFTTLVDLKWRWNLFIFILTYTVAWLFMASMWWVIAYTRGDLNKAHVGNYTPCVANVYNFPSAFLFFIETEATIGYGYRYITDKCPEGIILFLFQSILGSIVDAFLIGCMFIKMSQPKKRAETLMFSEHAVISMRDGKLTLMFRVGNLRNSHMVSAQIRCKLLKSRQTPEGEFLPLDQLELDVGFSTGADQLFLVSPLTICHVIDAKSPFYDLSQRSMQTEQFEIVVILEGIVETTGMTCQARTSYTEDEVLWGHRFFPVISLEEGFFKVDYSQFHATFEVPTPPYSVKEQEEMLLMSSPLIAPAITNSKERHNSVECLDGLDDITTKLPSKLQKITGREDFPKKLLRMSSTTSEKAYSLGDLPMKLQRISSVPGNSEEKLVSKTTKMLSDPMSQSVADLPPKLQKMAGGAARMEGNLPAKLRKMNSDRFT
Sequence of UniProt P48544 (whole entry, looked up): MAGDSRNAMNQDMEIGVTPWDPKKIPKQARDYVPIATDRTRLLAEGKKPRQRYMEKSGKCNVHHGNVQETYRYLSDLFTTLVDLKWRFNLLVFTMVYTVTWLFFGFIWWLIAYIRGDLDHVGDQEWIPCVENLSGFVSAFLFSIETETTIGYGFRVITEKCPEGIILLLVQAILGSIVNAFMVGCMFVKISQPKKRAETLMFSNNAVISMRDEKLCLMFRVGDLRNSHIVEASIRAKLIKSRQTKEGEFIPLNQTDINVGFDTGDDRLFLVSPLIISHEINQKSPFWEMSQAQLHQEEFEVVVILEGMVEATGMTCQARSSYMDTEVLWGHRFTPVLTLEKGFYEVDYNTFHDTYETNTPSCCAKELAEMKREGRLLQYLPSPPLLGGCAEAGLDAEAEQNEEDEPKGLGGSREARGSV
DNMT1: DNA (cytosine-5)-methyltransferase 1 (DNMT1, Homo sapiens, UniProt P26358)
Sequence of UniProt P26358 (whole entry, looked up): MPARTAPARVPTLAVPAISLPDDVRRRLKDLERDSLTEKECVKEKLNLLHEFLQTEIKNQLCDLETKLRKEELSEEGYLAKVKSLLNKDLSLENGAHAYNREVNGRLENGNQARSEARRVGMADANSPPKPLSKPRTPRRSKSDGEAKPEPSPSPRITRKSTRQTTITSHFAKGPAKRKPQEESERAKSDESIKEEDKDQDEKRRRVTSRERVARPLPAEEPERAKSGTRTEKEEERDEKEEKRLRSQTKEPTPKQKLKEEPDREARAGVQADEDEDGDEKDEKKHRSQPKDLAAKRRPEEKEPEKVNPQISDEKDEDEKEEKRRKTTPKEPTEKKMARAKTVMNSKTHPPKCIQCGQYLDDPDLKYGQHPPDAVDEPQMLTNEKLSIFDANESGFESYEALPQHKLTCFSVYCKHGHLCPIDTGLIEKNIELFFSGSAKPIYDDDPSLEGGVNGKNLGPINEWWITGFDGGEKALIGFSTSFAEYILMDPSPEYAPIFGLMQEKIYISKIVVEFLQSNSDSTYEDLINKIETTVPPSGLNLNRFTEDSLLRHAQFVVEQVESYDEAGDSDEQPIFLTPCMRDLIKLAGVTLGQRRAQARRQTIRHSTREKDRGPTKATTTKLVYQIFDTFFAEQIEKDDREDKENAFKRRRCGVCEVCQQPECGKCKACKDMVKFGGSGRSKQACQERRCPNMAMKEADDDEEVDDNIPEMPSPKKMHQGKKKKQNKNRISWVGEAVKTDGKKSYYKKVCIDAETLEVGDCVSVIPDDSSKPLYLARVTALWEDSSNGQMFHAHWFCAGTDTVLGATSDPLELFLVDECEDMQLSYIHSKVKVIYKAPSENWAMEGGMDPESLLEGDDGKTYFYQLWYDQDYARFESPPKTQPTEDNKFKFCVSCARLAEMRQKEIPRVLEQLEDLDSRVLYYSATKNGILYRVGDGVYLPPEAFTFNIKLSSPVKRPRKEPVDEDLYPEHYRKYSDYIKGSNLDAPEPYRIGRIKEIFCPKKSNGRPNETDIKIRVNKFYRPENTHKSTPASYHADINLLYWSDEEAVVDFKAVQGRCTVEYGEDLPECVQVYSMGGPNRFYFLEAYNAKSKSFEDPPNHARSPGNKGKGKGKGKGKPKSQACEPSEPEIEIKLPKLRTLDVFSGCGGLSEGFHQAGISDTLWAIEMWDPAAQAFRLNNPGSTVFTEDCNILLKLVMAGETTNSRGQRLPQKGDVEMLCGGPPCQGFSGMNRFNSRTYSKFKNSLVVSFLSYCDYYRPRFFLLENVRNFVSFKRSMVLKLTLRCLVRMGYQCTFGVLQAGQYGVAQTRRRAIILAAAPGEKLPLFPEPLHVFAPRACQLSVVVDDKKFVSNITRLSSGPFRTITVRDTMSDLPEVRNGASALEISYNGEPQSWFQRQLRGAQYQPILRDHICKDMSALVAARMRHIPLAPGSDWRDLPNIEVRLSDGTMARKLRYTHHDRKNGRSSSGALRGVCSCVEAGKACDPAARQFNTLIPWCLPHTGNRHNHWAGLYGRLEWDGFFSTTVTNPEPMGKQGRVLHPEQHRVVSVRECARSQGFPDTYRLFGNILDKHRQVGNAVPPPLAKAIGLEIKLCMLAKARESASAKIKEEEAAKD
USP16 ZnF-UBD domain: Ubiquitin carboxyl-terminal hydrolase 16, ZnF-UBD domain (USP16, Homo sapiens, UniProt Q9Y5T5)
Sequence of UniProt Q9Y5T5 (whole entry, looked up): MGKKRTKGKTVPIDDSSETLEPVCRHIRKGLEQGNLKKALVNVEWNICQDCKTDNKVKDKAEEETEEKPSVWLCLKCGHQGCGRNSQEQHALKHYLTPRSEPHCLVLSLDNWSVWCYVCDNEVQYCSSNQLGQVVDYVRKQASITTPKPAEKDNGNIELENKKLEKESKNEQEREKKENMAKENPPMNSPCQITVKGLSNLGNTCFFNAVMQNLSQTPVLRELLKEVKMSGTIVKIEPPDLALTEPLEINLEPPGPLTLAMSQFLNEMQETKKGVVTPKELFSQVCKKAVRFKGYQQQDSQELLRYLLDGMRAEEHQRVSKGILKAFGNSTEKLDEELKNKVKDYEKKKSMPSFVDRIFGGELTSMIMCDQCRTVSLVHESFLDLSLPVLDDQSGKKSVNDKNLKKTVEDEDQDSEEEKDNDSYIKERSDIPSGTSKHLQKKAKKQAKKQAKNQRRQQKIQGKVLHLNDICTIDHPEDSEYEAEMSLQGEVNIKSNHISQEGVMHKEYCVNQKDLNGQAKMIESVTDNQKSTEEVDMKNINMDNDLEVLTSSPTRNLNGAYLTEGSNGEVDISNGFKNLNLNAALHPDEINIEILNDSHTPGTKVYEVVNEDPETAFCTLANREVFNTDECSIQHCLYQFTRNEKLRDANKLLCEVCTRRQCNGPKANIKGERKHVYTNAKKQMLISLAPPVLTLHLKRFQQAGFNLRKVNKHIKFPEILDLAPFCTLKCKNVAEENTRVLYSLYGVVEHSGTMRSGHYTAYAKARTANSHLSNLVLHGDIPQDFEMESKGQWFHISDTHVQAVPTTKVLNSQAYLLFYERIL
Sequence of UniProt Q6NT16 (whole entry, unmodified, looked up): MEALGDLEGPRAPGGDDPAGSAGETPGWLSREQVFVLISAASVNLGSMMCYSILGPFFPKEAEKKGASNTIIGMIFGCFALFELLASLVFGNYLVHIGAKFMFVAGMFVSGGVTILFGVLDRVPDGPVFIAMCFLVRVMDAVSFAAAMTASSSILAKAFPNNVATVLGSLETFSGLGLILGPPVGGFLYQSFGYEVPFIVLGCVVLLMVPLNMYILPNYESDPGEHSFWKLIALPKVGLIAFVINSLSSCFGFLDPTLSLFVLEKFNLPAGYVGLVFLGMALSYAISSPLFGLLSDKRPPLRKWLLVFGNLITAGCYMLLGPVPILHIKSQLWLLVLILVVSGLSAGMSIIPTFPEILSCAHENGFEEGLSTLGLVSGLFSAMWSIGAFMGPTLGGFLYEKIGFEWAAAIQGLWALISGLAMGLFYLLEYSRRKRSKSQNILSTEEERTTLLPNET
Sequence of UniProt P35372 (whole entry, looked up): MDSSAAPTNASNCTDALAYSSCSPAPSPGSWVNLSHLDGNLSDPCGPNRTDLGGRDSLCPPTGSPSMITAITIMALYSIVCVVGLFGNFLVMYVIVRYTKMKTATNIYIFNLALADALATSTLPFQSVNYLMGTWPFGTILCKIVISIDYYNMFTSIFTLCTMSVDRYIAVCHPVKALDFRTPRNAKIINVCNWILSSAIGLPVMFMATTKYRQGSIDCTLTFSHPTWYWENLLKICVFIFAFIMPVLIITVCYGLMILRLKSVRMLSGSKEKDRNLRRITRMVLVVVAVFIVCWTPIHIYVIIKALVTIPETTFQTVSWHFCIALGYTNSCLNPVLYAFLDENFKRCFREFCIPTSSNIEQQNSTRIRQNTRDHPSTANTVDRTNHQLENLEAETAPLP
Sequence of UniProt P70195 (whole entry, looked up): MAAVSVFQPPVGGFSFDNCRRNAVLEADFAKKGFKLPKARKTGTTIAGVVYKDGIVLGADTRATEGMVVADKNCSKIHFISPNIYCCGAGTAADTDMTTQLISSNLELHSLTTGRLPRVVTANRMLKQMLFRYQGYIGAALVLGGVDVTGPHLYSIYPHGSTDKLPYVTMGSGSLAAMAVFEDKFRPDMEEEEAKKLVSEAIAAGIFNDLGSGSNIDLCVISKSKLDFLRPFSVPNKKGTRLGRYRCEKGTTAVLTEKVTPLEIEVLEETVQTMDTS
Sequence of UniProt P11712 (whole entry, looked up): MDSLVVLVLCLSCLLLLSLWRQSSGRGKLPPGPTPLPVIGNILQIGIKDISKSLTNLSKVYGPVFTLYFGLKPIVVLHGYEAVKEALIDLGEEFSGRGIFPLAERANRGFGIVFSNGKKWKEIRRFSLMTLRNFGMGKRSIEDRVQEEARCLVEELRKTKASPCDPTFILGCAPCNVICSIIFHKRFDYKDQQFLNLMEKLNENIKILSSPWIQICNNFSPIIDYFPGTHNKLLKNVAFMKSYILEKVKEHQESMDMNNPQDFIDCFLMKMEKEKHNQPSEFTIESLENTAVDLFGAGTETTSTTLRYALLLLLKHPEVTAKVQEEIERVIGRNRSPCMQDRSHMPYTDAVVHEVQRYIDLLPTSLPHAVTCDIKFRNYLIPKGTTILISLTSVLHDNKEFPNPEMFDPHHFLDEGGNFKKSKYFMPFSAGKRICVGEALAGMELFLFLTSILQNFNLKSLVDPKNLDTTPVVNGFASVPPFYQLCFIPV

CCC[C@H](CC)Oc1ccc(C(C)(C)C)cc1NC(=O)c1nnn(-c2cc(OC)c(OCCCCCCOCCOCC(=O)N[C@H](C(=O)N3C[C@H](O)C[C@H]3C(=O)NCc3ccc(-c4scnc4C)cc3)C(C)(C)C)cc2OC)c1C — DC50 (NR1I2 (Homo sapiens, UniProt O75469); degrader, western blot; SNU-C4 3xFLAG knock-in cells; 24 h): ~50 nM
NCCCNCCCCNCCCN — Kd (MFS-type transporter SLC18B1 (SLC18B1, Homo sapiens, UniProt Q6NT16, E83A); binder): 145 µM
CCn1c(-c2nc3cc(C(=O)N4CCC[C@@H](N)C4)cc(OC)c3n2C)cc2cccnc21 — IC50 (PADI4 (Homo sapiens, UniProt Q9UM07); binding, fluorescence polarisation; together with: tracer displacement, 2 mM Ca2+): 807 nM
O=C1CN(c2nc(=O)c3cc(C(F)(F)F)cc([N+](=O)[O-])c3s2)CCN1C1CCCC1 — IC50 (Cytochrome P450 2C9 (CYP2C9, Homo sapiens, UniProt P11712); 60 (unit not given), pH 7.4): > 10000 nM
CCc1cc(NC(=O)COc2cccc(Cl)c2Cl)n(C2CCC(F)(F)CC2)n1 — EC50 (Kir3.1/Kir3.4; activator, thallium flux; HEK293): 339 nM
Cc1ccc(C(C)C)cc1O — Ki (uncharacterized protein (Solanum tuberosum, UniProt M0ZZL3); substrate inhibition; together with: 100 µM UDP-glucose): 1280 ± 746 µM
CCc1c(C#N)c(SC(C(N)=O)c2ccccc2)nc(N2CCN(C)CC2)c1C#N (stereo not shown) — DC50 (DNMT1; degrader, Western blot; HCT-116; 24 h, range 0.01 to 1 µM): > 1000 nM
O=C(O)CCC(=O)c1ccc(S(=O)(=O)N2CCCC2)cc1 — Kd (USP16 ZnF-UBD domain): 139 µM
CCc1c(C#N)c(SC(C(N)=O)c2ccccc2)nc(N2CCC(NC(=O)C34CC5CC(CC(C5)C3)C4)CC2)c1C#N (stereo not shown) — DC50 (DNMT1; degrader, Western blot; HCT-116; 24 h, range 0.01 to 1 µM): < 50 nM
O=C(O)CNc1ncnc2ccccc12 — Kd (USP16 ZnF-UBD domain): 603 µM
O=C(COc1cc(Cl)ccc1Cl)Nc1cc(C2CCC2)nn1C1CCOCC1 — EC50 (Kir3.1/Kir3.4; activator, thallium flux; HEK293): 950 nM
CCc1c(C#N)c(NCC(N)=O)nc(SC(C(N)=O)c2ccccc2)c1C#N (stereo not shown) — DC50 (DNMT1; degrader, Western blot; HCT-116; 24 h, range 0.01 to 1 µM): > 1000 nM
O=C(O)CCc1cn2cccnc2n1 — Kd (USP16 ZnF-UBD domain): > 1000 µM
CCc1c(C#N)c(SC(C(N)=O)c2ccccc2)nc(N2CCC(NC(=O)C(C)(C)C)CC2)c1C#N (stereo not shown) — DC50 (DNMT1; degrader, Western blot; HCT-116; 24 h, range 0.01 to 1 µM): < 50 nM
COc1cc2c(cc1OC)[C@H]1C[C@@H](O)[C@H](CC(C)C)CN1CC2 — Kd (MFS-type transporter SLC18B1 (SLC18B1, Homo sapiens, UniProt Q6NT16, W384A); binder; radiolabeled protein variants): 385 µM
CCc1cc(NC(=O)COc2cc(Cl)ccc2Cl)n(C2CCC(F)(F)CC2)n1 — EC50 (Kir3.1/Kir3.4; activator, thallium flux; HEK293): 207 nM
COc1cc(Nc2ncc3c(n2)-c2ccc(Cl)cc2C(c2c(F)cccc2OC)=NC3)ccc1C(=O)NCCOCCOCCNC(=O)COc1cccc2c1C(=O)N(C1CCC(=O)NC1=O)C2=O (stereo not shown) — EC50 (STK17B (Homo sapiens, UniProt O94768); binding, kinobead competition; MV4-11 cell lysate): > 30000 nM
O=C(O)CCC(=O)c1cccs1 — Kd (USP16 ZnF-UBD domain): > 1000 µM
CC(C)C[C@H](NC(=O)[C@H](CCc1ccccc1)NC(=O)CN1CCOCC1)C(=O)N[C@@H](Cc1ccccc1)C(=O)N[C@@H](CC(C)C)C(=O)[C@@]1(C)CO1 — IC50 (Psmb7/Psmb3, β2 subunit (Mus musculus, UniProt P70195+Q9R1P1); proteasome activity, inhibitor; Ba/F3 p210; 1 h pulse): 153 ± 34.9 nM
CCc1c(C#N)c(SC(C(N)=O)c2ccccc2)nc(N(C)CC(=O)NC)c1C#N (stereo not shown) — DC50 (DNMT1; degrader, Western blot; H1299; 24 h): 101 ± 11 nM
CCn1c(-c2nc3ccc(C(=O)N4CCCC(N)C4)cc3n2C)cc2ccccc21 (stereo not shown) — IC50 (OPRM1 (Homo sapiens, UniProt P35372); antagonist, GTPγS binding): > 100000 nM
O=c1n(CCCN2CCN(c3cccc(Cl)c3)CC2)nc2ccccn12 — Ki (HCRTR2 (Homo sapiens, UniProt O43614)): > 10 µM
Cc1sc2ncn(CC(=O)O)c(=O)c2c1C — Kd (USP16 ZnF-UBD domain): 579 µM
O=C(COc1ccc(C(F)(F)F)cc1C(F)(F)F)Nc1cc(C2CC2)nn1C1CCOCC1 — EC50 (Kir3.1/Kir3.4; activator, thallium flux; HEK293): 897 nM
CCCCN1CCC(COC(=O)c2ccc(N)c(OCF)c2)CC1 — Ki (GABA-A receptor (human recombinant); binding): > 10 µM
O=C(O)CNC(=O)c1ccc(S(=O)(=O)N2CCC(n3c(=O)oc4ccccc43)CC2)cc1 — Kd (USP16 ZnF-UBD domain): 536 µM
N#Cc1ccc(COc2cccc(C3CCN(Cc4nc5ccc(C(=O)O)cc5n4C[C@@H]4CCO4)CC3)n2)c(F)c1 — Ki (sodium channel): 6.8 µM
O=C(O)CSc1nnc(NC(=O)COc2ccccc2)s1 — Kd (USP16 ZnF-UBD domain): 372 µM
O=C(COc1ccc(C(F)(F)F)cc1C(F)(F)F)Nc1cc(C2CC2)nn1C1CCC(F)(F)CC1 — EC50 (Kir3.1/Kir3.4; activator, thallium flux; HEK293): 6400 nM
O=C(O)CC1Oc2ccccc2NC1=O (stereo not shown) — Kd (USP16 ZnF-UBD domain): > 1000 µM
CC/C=C\C/C=C\C/C=C\C/C=C\C/C=C\C/C=C\CCC(=O)O — Ki (Cytochrome P450 2J2 (CYP2J2, Homo sapiens, UniProt P51589, L2A); enzyme activity, competitive inhibitor; nanodiscs with CPR, together with: arachidonic acid): 16.5 ± 2.23 µM

Repeated from above:
CCc1c(C#N)c(SC(C(N)=O)c2ccccc2)nc(N2CCC(NC(=O)C34CC5CC(CC(C5)C3)C4)CC2)c1C#N (stereo not shown) — DC50 (DNMT1; degrader, Western blot; HCT-116; 24 h, range 0.01 to 1 µM): < 50 nM
O=C(COc1ccc(C(F)(F)F)cc1C(F)(F)F)Nc1cc(C2CC2)nn1C1CCC(F)(F)CC1 — EC50 (Kir3.1/Kir3.4; activator, thallium flux; HEK293): 6400 nM
O=C1CN(c2nc(=O)c3cc(C(F)(F)F)cc([N+](=O)[O-])c3s2)CCN1C1CCCC1 — IC50 (Cytochrome P450 2C9 (CYP2C9, Homo sapiens, UniProt P11712); 60 (unit not given), pH 7.4): > 10000 nM
CCCCN1CCC(COC(=O)c2ccc(N)c(OCF)c2)CC1 — Ki (GABA-A receptor (human recombinant); binding): > 10 µM
O=C(O)CNc1ncnc2ccccc12 — Kd (USP16 ZnF-UBD domain): 603 µM
